# Published values gathered from unrelated publications.
# Protocols differ between the studies behind these lines. Values joined by “and” are separate records of one study, mostly repeats; a detail may differ. ± gives the spread as reported.
# NECTIN4: NECTIN4 32-349 (Homo sapiens, UniProt Q96NY8)
# Chain of UniProt Q96NY8 (whole entry, looked up): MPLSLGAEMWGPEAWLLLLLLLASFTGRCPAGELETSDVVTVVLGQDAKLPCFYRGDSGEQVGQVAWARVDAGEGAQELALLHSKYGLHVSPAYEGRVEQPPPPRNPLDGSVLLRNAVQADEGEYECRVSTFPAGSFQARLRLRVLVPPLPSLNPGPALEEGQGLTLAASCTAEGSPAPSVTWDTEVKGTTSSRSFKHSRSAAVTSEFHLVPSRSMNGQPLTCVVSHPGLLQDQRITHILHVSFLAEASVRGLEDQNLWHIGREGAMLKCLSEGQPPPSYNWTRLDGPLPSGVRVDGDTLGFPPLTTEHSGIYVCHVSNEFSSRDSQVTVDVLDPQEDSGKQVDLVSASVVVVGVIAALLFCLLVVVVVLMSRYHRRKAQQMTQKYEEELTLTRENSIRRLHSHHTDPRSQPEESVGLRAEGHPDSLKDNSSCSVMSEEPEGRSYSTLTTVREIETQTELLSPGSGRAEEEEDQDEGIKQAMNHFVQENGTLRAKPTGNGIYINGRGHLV
# B1: mdfA (Bacillus subtilis, UniProt O31597); chain MLFLHDVWVNWFEGEENGYNVCHFHEWRKEDTVELLDQVPLLRVPSVLFHYIENDLSELPKGLLEDVHQKSYIRKNHERTKLEYCFVVTDGIGILAVDTIGYTIPVRKSRLIPRQEQLVYEMVKDVEPETYEFEPKKLESSKEYHILSLAPEHVRGLTRKERQIKQLMFMALDQLKGLKNRAEIGYWYTEWNPHMYEQIKRMSFEEIWDMLYNETIEGWSDKHLAFCENLIKGQPFFEKLWEMENESKVN
# B2: RSPO4/IgG1 Fc RSPO4 32-137 Q65R/N297Q; CPT2 conjugated via azide click; chain GGNCTGCIICSEENGCSTCQQRLFLFIRREGIRRYGKCLHDCPPGYFGIRGQEVNRCKKCGATCESCFSQDFCIRCKRQFYLYKGKCLPTCPPGTLAHQNTRECQGGGGGSGGGGSGGGGS
# B3: ITGAV/ITGB5 ectodomain, soluble, clasped; chain 1 FNLDVDSPAEYSGPEGSYFGFAVDFFVPSASSRMFLLVGAPKANTTQPGIVEGGQVLKCDWSSTRRCQPIEFDATGNRDYAKDDPLEFKSHQWFGASVRSKQDKILACAPLYHWRTEMKQEREPVGTCFLQDGTKTVEYAPCRSQDIDADGQGFCQGGFSIDFTKADRVLLGGPGSFYWQGQLISDQVAEIVSKYDPNVYSIKYNNQLATRTAQAIFDDSYLGYSVAVGDFNGDGIDDFVSGVPRAARTLGMVYIYDGKNMSSLYNFTGEQMAAYFGFSVAATDINGDDYADVFIGAPLFMDRGSDGKLQEVGQVSVSLQRASGDFQTTKLNGFEVFARFGSAIAPLGDLDQDGFNDIAIAAPYGGEDKKGIVYIFNGRSTGLNAVPSQILEGQWAARSMPPSFGYSMKGATDIDKNGYPDLIVGAFGVDRAILYRARPVITVNAGLEVYPSILNQDNKTCSLPGTALKVSCFNVRFCLKADGKGVLPRKLNFQVELLLDKLKQKGAIRRALFLYSRSPSHSKNMTISRGGLMQCEELIAYLRDESEFRDKLTPITIFMEYRLDYRTAADTTGLQPILNQFTPANISRQAHILLDCGEDNVCKPKLEVSVDSDQKKIYIGDDNPLTLIVKAQNQGEGAYEAELIVSIPLQADFIGVVRNNEALARLSCAFKTENQTRQVVCDLGNPMKAGTQLLAGLRFSVHQQSEMDTSVKFDLQIQSSNLFDKVSPVVSHKVDLAVLAAVEIRGVSSPDHVFLPIPNWEHKENPETEEDVGPVVQHIYELRNNGPSSFSKAMLHLQWPYKYNNNTLLYILHYDIDGPMNCTSDMEINPLRIKISSLQTTEKNDTVAGQGERDHLITKRDLALSEGDIHTLGCGVAQCLKIVCQVGRLDRGKSAILYVKSLLWTETFMNKENQNHSYSLKSSASFNVIEFPYKNLPIEDITNSTLVTTNVTWGIQPAPMPV; chain 2 GLNICTSGSATSCEECLLIHPKCAWCSKEDFGSPRSITSRCDLRANLVKNGCGGEIESPASSFHVLRSLPLSSKGSGSAGWDVIQMTPQEIAVNLRPGDKTTFQLQVRQVEDYPVDLYYLMDLSLSMKDDLDNIRSLGTKLAEEMRKLTSNFRLGFGSFVDKDISPFSYTAPRYQTNPCIGYKLFPNCVPSFGFRHLLPLTDRVDSFNEEVRKQRVSRNRDAPEGGFDAVLQAAVCKEKIGWRKDALHLLVFTTDDVPHIALDGKLGGLVQPHDGQCHLNEANEYTASNQMDYPSLALLGEKLAENNINLIFAVTKNHYMLYKNFTALIPGTTVEILDGDSKNIIQLIINAYNSIRSKVELSVWDQPEDLNLFFTATCQDGVSYPGQRKCEGLKIGDTASFEVSLEARSCPSRHTEHVFALRPVGFRDSLEVGVTYNCTCGCSVGLEPNSARCNGSGTYVCGLCECSPGYLGTRCECQDGENQSVYQNLCREAEGKPLCSGRGDCSCNQCSCFESEFGKIYGPFCECDNFSCARNKGVLCSGHGECHCGECKCHAGYIGDNCNCSTDISTCRGRDGQICSERGHCLCGQCQCTEPGAFGEMCEKCPTCPDACSTKRDCVECLLLHSGKPDNQTCHSLCRDEVITWVDTIVKDDQEAVLCFYKTAKDCVMMFTYVELPSGKSNLTVLREPECGNTPN
# B4: TIMP2 27-153 (Homo sapiens, UniProt P16035); sequence looked up; chain CSCSPVHPQQAFCNADVVIRAKAVSEKEVDSGNDIYGNPIKRIQYEIKQIKMFKGPEKDIEFIYTAPSSAVCGVSLDVGGKKEYLIAGKAEGDGKMHITLCDFIVPWDTLSTTQKKSLNHRYQMGCE
# B5: swi6 (Schizosaccharomyces pombe, UniProt P40381); chain MKKGGVRSYRRSSTSKRSVIDDDSEPELPSMTKEAIASHKADSGSSDNEVESDHESKSSSKKLKENAKEEEGGEEEEEDEYVVEKVLKHRMARKGGGYEYLLKWEGYDDPSDNTWSSEADCSGCKQLIEAYWNEHGGRPEPSKRKRTARPKKPEAKEPSPKSRKTDEDKHDKDSNEKIEDVNEKTIKFADKSQEEFNENGPPSGQPNGHIESDNESKSPSQKESNESEDIQIAETPSNVTPKKKPSPEVPKLPDNRELTVKQVENYDSWEDLVSSIDTIERKDDGTLEIYLTWKNGAISHHPSTITNKKCPQKMLQFYESHLTFRENE
# B6: TNFSF4 51-183 (Homo sapiens, UniProt P23510); sequence looked up; chain QVSHRYPRIQSIKVQFTEYKKEKGFILTSQKEDEIMKVQNNSVIINCDGFYLISLKGYFSQEVNISLHYQKDEEPLFQLKKVRSVNSLMVASLTYKDKVYLNVTTDNTSLDDFHVNGGELILIHQNPGEFCVL
# B7: STAMBP 244-424 (Homo sapiens, UniProt O95630); sequence looked up; chain NSESIPTIDGLRHVVVPGRLCPQFLQLASANTARGVETCGILCGKLMRNEFTITHVLIPKQSAGSDYCNTENEEELFLIQDQQGLITLGWIHTHPTQTAFLSSVDLHTHCSYQMMLPESVAIVCSPKFQETGFFKLTDHGLEEISSCRQKGFHPHSKDPPLFCSCSHVTVVDRAVTITDLR
# B8: DLL4 27-400 G28S/F107L/I143F/H194Y/L206P/N257P/T271L/F280Y/S301R/Q305P (Homo sapiens, UniProt Q9NR61); sequence looked up; chain SSVFQLQLQEFINERGVLASGRPCEPGCRTFFRVCLKHFQAVVSPGPCTFGTVSTPVLGTNSFAVRDDSSGGGRNPLQLPLNFTWPGTFSLIIEAWHAPGDDLRPEALPPDALISKFAIQGSLAVGQNWLLDEQTSTLTRLRYSYRVICSDNYYGDNCSRLCKKRNDYFGHYVCQPDGNPSCLPGWTGEYCQQPICLSGCHEQNGYCSKPAECLCRPGWQGRLCNECIPHPGCRHGTCSTPWQCLCDEGWGGLYCDQDLNYCTHHSPCKNGATCRNSGPRSYTCTCRPGYTGVDCELELSECDSNPCRNGGSCKDQEDGYHCLCPPGYYGLHCEHSTLSCADSPCFNGGSCRERNQGANYACECPPNFTGSNCE
# Chain of UniProt P20936 (whole entry, unmodified, looked up): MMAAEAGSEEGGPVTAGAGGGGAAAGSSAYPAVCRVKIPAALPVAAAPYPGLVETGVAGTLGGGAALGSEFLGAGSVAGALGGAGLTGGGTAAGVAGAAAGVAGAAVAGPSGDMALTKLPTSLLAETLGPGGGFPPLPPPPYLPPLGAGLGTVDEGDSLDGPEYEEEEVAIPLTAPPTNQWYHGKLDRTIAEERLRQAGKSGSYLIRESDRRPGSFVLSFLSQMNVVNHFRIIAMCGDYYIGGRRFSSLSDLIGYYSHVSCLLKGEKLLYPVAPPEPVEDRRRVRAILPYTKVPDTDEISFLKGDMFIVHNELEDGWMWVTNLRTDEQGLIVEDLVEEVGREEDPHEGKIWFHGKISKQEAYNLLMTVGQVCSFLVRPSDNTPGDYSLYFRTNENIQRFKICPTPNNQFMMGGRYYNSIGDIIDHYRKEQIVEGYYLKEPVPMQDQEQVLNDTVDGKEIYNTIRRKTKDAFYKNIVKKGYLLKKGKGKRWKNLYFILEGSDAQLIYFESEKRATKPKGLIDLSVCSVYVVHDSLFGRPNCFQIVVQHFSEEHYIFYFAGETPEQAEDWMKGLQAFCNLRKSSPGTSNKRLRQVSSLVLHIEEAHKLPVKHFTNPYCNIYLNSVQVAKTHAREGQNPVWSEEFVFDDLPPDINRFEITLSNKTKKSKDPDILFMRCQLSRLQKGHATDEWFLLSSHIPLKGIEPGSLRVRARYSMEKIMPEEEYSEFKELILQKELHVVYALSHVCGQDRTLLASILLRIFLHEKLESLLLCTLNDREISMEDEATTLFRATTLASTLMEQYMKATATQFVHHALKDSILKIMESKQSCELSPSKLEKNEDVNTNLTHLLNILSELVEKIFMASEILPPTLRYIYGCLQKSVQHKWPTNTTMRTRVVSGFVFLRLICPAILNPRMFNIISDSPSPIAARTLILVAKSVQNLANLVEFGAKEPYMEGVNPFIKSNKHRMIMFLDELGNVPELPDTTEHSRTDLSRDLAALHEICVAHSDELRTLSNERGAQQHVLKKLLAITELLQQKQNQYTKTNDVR
# Chain of UniProt Q99832 (whole entry, looked up): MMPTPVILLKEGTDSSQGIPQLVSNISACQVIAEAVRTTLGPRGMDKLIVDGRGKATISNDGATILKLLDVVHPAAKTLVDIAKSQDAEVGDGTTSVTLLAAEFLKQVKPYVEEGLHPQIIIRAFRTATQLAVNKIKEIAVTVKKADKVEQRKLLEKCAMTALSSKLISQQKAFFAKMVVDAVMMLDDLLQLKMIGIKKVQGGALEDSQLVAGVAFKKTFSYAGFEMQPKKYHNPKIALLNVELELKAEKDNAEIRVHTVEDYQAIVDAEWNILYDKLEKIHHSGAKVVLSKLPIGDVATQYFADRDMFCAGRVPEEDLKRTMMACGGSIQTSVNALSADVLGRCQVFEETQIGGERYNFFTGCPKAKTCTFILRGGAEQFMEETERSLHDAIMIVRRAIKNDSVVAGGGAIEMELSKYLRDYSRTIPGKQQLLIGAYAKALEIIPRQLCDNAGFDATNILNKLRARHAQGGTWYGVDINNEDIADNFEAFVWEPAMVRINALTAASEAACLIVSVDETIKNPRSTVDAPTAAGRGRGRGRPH
# Chain of UniProt P40235 (whole entry, unmodified, looked up): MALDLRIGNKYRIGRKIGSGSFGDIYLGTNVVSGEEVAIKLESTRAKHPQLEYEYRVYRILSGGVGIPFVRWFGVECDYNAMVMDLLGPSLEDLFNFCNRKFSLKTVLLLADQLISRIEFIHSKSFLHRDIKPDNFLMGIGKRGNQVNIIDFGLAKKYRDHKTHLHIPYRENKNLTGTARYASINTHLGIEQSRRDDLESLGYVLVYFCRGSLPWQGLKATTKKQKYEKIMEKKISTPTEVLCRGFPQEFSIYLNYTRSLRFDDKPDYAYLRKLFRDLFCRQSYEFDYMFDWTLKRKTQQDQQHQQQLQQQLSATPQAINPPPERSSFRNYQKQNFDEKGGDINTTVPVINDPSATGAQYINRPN
# Chain of UniProt Q6ZMY3 (whole entry, looked up): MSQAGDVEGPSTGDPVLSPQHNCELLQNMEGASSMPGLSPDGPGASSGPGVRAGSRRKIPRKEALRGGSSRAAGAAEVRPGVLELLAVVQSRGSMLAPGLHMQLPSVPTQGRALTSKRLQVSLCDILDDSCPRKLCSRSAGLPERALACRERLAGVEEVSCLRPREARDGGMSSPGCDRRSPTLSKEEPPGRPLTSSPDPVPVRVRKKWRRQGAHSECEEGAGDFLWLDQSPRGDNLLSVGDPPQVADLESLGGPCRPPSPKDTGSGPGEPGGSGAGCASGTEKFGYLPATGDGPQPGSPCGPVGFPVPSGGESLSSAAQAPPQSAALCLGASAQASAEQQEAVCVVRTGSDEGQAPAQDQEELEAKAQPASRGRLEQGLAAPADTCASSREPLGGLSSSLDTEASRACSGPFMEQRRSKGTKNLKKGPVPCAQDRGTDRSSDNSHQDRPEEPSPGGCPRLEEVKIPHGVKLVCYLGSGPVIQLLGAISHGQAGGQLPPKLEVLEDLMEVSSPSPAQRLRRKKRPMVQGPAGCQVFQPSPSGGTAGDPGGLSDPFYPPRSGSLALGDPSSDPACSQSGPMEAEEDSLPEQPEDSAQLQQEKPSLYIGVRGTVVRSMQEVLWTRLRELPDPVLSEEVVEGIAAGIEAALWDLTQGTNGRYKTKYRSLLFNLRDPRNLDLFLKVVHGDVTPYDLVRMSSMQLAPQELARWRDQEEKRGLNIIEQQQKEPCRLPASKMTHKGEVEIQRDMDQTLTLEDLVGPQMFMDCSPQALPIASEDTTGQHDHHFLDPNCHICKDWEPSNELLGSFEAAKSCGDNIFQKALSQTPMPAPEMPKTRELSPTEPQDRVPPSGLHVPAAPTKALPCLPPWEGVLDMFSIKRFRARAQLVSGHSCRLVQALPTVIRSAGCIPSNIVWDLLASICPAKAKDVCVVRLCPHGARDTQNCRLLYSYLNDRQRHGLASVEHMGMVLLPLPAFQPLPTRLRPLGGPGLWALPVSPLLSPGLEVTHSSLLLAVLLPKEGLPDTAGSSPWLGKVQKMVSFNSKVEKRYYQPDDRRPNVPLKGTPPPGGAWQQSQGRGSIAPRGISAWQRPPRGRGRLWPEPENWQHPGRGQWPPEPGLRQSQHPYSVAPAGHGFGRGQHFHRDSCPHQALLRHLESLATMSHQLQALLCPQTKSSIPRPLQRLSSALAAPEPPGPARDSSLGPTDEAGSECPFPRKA
# Chain of UniProt Q8N5K1 (whole entry, looked up): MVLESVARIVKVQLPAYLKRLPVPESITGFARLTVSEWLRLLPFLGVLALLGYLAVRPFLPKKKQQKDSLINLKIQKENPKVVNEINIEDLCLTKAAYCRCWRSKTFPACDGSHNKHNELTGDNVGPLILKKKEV
# Chain of UniProt Q13185 (whole entry, unmodified, looked up): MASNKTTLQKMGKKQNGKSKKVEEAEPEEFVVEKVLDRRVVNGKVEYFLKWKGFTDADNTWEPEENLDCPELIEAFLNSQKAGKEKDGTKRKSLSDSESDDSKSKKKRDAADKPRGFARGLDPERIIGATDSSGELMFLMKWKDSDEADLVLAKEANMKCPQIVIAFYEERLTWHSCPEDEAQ
# Chain of UniProt P49720 (whole entry, looked up): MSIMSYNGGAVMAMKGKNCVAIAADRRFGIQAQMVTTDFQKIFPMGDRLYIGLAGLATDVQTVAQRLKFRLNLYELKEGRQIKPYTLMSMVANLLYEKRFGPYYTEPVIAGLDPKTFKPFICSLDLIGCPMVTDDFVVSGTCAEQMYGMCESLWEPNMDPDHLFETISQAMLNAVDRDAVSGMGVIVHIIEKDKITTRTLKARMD
Substance,partner,assay,test system,setting,scale,quantity,result
B1 (mdfA),"clpC N domain 1-150 (Bacillus subtilis, UniProt P37571)",ITC,,,,ΔH,-4.66 kcal/mol
"VIM (Homo sapiens, UniProt P08670)","CCT7 (Homo sapiens, UniProt Q99832)",cross-linking MS,cells,added: iqPIR,,cross-linked residues,K120 to K153
"PTPRJ (Mus musculus, UniProt Q64455)",Insr (Mus musculus),proximity ligation,N2a,added: insulin,"relative to: resting WT cells, higher = more PLA signal",PLA signal change,1.4 fold
"GLP-1/MC4 receptor agonist chimeric peptide, D-Ser position 2","MC5R (Homo sapiens, UniProt P33032)","cAMP, agonist, HTRF",,recombinant,,EC50,247 nM
"ALB (Homo sapiens, UniProt P02768)","NUBP1 (Homo sapiens, UniProt P53384)",cross-linking MS,,added: DSSO,,cross-linked residues,K402 to K211
DYNLRB1/DYNLL1/DYNLT1/DYNC1LI2/DYNC1I2/DYNC1H1 dynein-1 complex (Homo sapiens),"HOOK3/KASH5 chimera Hook3 CC, KASH5 LIC-BD, HaloTag",pull-down,,,,Ka,< 1.6e+06 M⁻¹
B2,"LGR4 (Homo sapiens, UniProt Q9BXB1)",cell viability,"Fc fusion, 293T-LGR4",5 days,,cytotoxic IC50,0.1 nM
B3,"cyclic RGD peptide, disulfide-cyclized, aminocaproic acid, FITC",fluorescence polarisation,,added: CaCl2 1 mM,,EC50,8.5 nM
B4 (TIMP2 27-153),"MMP3 100-272 (Homo sapiens, UniProt P08254)","enzyme activity, inhibitor, fluorogenic peptide cleavage assay",,,,Ki,13.7 ± 1.3 nM
"FGB (Homo sapiens, UniProt P02675)","NBEAL1 (Homo sapiens, UniProt Q6ZS30)",cross-linking MS,,added: DSSO,,cross-linked residues,K77 to K1974
"KLLITIHDRKEFAKFEEERARAKWDTANNPLYKEATSTFTNITYRGT (ITGB3 742-788 (Homo sapiens, UniProt P05106); sequence looked up)","Tln2 312-408 Y376A (Mus musculus, UniProt Q71LX4)",NMR titration,,,,Kd,898000 nM
"SRP14 (Homo sapiens, UniProt P37108)","SRP9 (Homo sapiens, UniProt P49458)",cross-linking MS,cells,added: BDP-NHP,,cross-linked residues,K66 to K30
B5 (swi6),"hht1 histone H3, K9 methylation (Schizosaccharomyces pombe, UniProt P09988)",single-molecule imaging,,in cells,,dwell time,2.2 s
Trastuzumab IgG1 (Homo sapiens),"FCGR1A (Homo sapiens, UniProt P12314)",SPR,,,,kon,250000 M⁻¹ s⁻¹
"SQELHKLQTYPRTNTGSGTP (salmon calcitonin 13-32, N-terminal FITC-Ahx/C-terminal amide (Salmo salar); N-terminal FITC-Ahx/C-terminal amide)",RAMP2/CALCR extracellular domain 55-140 (Homo sapiens),fluorescence polarisation,peptide,,,pKD,5.77
SNCA fragment,"S100B (Homo sapiens, UniProt P04271)",pull-down,,,"relative to: flowthrough, higher = more binding",relative binding,2 fold
"FGG (Homo sapiens, UniProt P02679)","CCDC30 (Homo sapiens, UniProt Q5VVM6)",cross-linking MS,,added: DSSO,,cross-linked residues,K185 to K346
"BRIX1 (Homo sapiens, UniProt Q8TDN6)","EBNA1BP2 (Homo sapiens, UniProt Q99848)",cross-linking MS,cells,added: iqPIR,,cross-linked residues,K276 to K33
"ACPFGCMKNWSAPIWCTNK (Bicycle 68 bicyclic peptide; C-terminal amide/TATA scaffold, three cysteines cyclised)",NECTIN4,fluorescence polarisation,peptide,,,Ki,310 nM
ING2 PHD finger (Arabidopsis thaliana),"histone H3 1-10, K4me3",ITC,,,,molecule per partner,1.06 ± 0.01
ADCYAP1 PACAP (Homo sapiens),"VIPR2 (Homo sapiens, UniProt P41587)","cAMP accumulation, antagonist",Cos7,"VPAC2, added: PACAP-38",,pA2,4.37 µM
"Mcm2-7, DyLight 650 on Mcm6 N-terminus (Saccharomyces cerevisiae)","ORC unphosphorylated, DyLight 550 on Orc6 (Saccharomyces cerevisiae)",smFRET,,,,events reaching high recruitment state,152 of 162 events
B6 (TNFSF4 51-183),"TNFRSF4 29-170 (Homo sapiens, UniProt P43489)",SPR,,,,koff,0.061 s⁻¹
"FGA (Homo sapiens, UniProt P02671)","WSCD2 (Homo sapiens, UniProt Q2TBF2)",cross-linking MS,,added: DSSO,,cross-linked residues,K620 to K3
"dnaE alpha , NLuc fusion A921L/M923L (Escherichia coli)","dnaN (Escherichia coli, UniProt P0A988)",BRET,,in cells,"relative to: wild type signal, higher = more interaction",BRET increase,267%
"PSMB3 (Homo sapiens, UniProt P49720)","SPOCD1 (Homo sapiens, UniProt Q6ZMY3)",cross-linking MS,cells,added: iqPIR,,cross-linked residues,K77 to K1045
"ACPFGCMKNWSWAIWCTNK (Bicycle 69 bicyclic peptide; C-terminal amide/TATA scaffold, three cysteines cyclised)",NECTIN4,fluorescence polarisation,peptide,,,Ki,> 10000 nM
B7 (STAMBP 244-424),"Lys63-linked diubiquitin (Homo sapiens, UniProt P0CG48)","Lys63 diubiquitin cleavage, SDS-PAGE",,"20-100 µM, 20 °C",,kcat,1.4 s⁻¹
"CBX3 (Homo sapiens, UniProt Q13185)","SUV39H1 catalytic domain, C-terminal truncation (Homo sapiens)",pull-down,,"1.5 µM, added: chaetocin 0.1 µM",higher = less binding,binding reduction,76%
"NSE4 (Saccharomyces cerevisiae, UniProt P43124)","NSE5 (Saccharomyces cerevisiae, UniProt Q03718)",cross-linking MS,,hits only,,interaction screen,cross-linked
"CSN1S1 alpha-S1-casein, dephosphorylated","hhp1 1-296 (Schizosaccharomyces pombe, UniProt P40235)",pull-down,,,,Ki,14000 nM
JAZ2 fragment (Arabidopsis thaliana),"NINJA 233-425 (Arabidopsis thaliana, UniProt Q9SV55)","competitor, AlphaScreen or HTRF",,,,IC50,190 nM
B8,"NOTCH2 221-530 (Homo sapiens, UniProt Q04721)",SPR,,,"relative to: WT, higher = stronger binding",affinity enhancement,670 fold
"DPSDYAEPMDAVVKPRNEEENIYSVPHDS (ARHGAP35 residues 1083-1111; pY1087/pY1105, N-acetyl, C-amide)","RASA1 174-444 C236S/C261S/C372S/C402S/R427Q (Homo sapiens, UniProt P20936)",ITC,peptide,,,molecule per partner,0.932 and 0.95 and 0.967
"Itpr1 (Rattus norvegicus, UniProt P29994)","CISD2 (Homo sapiens, UniProt Q8N5K1)",co-IP,HEK293,densitometry,"relative to: total, higher = more co-precipitated",co-immunoprecipitation,14.6%
"ACTA1 (Gallus gallus, UniProt P68139)","MYH1 (Oryctolagus cuniculus, UniProt A0A5F9CQ93)",laser three-bead trap,,"Bell-bond fit, Pi 5 mM, added: ATP 100 µM",,detachment rate without load,120 s⁻¹
